Measured values pooled from the literature.
Each numbered part is a random draw from the data of one study; scales do not carry over between parts. Positions count from the first letter of the parent shown.

Series 1
Target: ABI1, truncated, D143A, DHFR fusion (Arabidopsis thaliana)
Method: DHFR PCA, deep sequencing
Sample: yeast
Setting: methotrexate growth selection, single substitutions
Added: (+)-ABA 0.11 µM
Reference: wild-type fitted maximum
Direction: higher = stronger binding
Starting sequence: PYL1, truncated, DHFR fusion (Arabidopsis thaliana); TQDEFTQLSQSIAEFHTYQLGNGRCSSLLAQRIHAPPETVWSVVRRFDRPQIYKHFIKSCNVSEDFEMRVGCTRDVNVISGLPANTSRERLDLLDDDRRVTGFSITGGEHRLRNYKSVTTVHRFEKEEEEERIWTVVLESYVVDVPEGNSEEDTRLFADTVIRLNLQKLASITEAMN; partner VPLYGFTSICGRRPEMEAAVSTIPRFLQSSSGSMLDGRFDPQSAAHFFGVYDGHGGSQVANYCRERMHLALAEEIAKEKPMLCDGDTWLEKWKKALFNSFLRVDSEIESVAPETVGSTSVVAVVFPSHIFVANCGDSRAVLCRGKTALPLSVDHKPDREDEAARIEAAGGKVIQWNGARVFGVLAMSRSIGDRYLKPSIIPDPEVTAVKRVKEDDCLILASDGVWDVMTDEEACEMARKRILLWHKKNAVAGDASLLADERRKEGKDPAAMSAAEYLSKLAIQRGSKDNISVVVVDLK
| Variant | relative binding score |
| --- | --- |
| V40Q | -4.98% |
| T73L | 21.2% |
| I162Q | 0.769% |
| G23K | 20.7% |
| E131I | 23.4% |
| E129A | 47% |
| D153Y | 0.191% |
| Q31R | 11.8% |
| Y18V | 2.91% |
| I12W | -4.94% |
| L138N | -3.14% |
| L28N | 0.00227% |
| L138Q | -4.58% |
| L93A | 3.22% |
| T160K | -2.04% |
| A170C | 13.7% |
| G71D | -1.43% |
| I33E | 3.49% |
| P36K | 10.9% |
| I105S | -1.26% |

Series 2
Target: CCND2, cyclin fold, Cln2 fusion (human)
Method: yeast growth competition, sequencing
Sample: yeast
Setting: weak parent motif
Reference: not given
Direction: higher = stronger binding
Starting sequence: RB1 docking peptide (human); PKPLKKLRFDIEG; partner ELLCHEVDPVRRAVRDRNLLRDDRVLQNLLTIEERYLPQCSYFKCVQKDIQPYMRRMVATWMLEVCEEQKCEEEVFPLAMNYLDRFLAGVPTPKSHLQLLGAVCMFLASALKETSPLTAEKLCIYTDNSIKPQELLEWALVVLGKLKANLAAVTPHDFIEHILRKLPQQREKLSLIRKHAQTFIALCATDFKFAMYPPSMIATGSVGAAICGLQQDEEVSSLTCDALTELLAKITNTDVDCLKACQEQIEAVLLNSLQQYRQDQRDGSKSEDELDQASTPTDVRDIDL
| Variant | normalised enrichment score |
| --- | --- |
| F9M | 0.522 |
| E12S | -0.0223 |
| L4E | 0.234 |
| K5H | 0.228 |
| R8T | 0.436 |
| G13W | -0.0267 |
| R8E | 0.23 |
| D10H | 0.124 |
| I11M | 0.0207 |
| R8L | -0.00475 |
| L4A | 0.642 |
| P3V | -0.152 |
| L4N | 0.374 |
| K2A | 0.147 |
| K5C | -0.162 |
| G13P | -0.107 |
| P3D | 0.42 |
| R8K | 0.128 |
| L4G | 0.442 |
| G13L | 0.243 |
| P1C | 0.746 |
| K2S | 0.164 |
| E12D | 0.181 |
| P1I | -0.174 |
| L7I | 0.383 |

Series 3
Target: CDC34 UBC core domain (UniProt P49427)
Method: yeast two-hybrid
Sample: yeast
Setting: mostly zero background
Reference: not given
Direction: higher = stronger interaction
B1: Ltn1 RING domain (UniProt Q6A009); chain VDKRFEGVEDCMICFSVIHGFNYSLPKKACRTCKKKFHSACLYKWFTSSNKSTCPLCRETFF
B2: RNF24 RING domain (UniProt Q9Y225); chain KVKELNLHELCAVCLEDFKPRDELGICPCKHAFHRKCLIKWLEVRKVCPLCNMPVLQLAQLH
B3: ZNRF3 RING domain (UniProt Q9ULT6); chain DTLSSSSTSDCAICLEKYIDGEELRVIPCTHRFHRKCVDPWLLQHHTCPHCRHNIIEQKGNP
B4: RNF181 RING domain (UniProt Q9P0P0); chain VIRGSQAELKCPVCLLEFEEEETAIEMPCHHLFHSSCILPWLSKTNSCPLCRYELPTDDDTY
Target sequence (chain): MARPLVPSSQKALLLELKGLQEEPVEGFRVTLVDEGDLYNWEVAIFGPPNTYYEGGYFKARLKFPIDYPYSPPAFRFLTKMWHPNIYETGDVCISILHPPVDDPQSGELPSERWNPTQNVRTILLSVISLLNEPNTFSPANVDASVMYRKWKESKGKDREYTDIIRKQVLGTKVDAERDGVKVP
| Sequence | lacZ reporter activity |
| --- | --- |
| KEQLEKHNDICAICYQDMKSAVITPCSHFFHAGCLKKWLYVQETCPLCHCHLKNSSQLP (RNF145 RING domain (UniProt Q96MT1)) | 0 |
| B1 (Ltn1 RING domain) | 0 |
| NTAPSLTVPECAICLQTCVHPVSLPCKHVFCYLCVKGASWLGKRCALCRQEIPEDFLDK (RNF146 RING domain (UniProt Q9NTX7)) | 0 |
| MDDQGCPRCKTTKYRNPSLKLMVNVCGHTLCESCVDLLFVRGAGNCPECGTPLRKSNFRV (MNAT1 RING domain (UniProt P51948)) | 0 |
| B2 (RNF24 RING domain) | 0 |
| QLRRLQEERTCKVCLDRAVSIVFVPCGHLVCAECAPGLQLCPICRAPVRSRVRTF (BIRC7 RING domain (UniProt Q96CA5)) | 0 |
| B3 (ZNRF3 RING domain) | 0 |
| B4 (RNF181 RING domain) | 0 |

Mixed results
Method: two-hybrid
Reference: out of 4 tests
Direction: higher = firmer interaction
T1: itself; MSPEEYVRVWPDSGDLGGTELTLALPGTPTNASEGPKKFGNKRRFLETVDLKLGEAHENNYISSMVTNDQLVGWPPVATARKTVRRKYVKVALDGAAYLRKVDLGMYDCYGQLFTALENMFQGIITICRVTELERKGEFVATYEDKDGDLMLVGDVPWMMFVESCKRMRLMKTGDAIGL
T2: itself; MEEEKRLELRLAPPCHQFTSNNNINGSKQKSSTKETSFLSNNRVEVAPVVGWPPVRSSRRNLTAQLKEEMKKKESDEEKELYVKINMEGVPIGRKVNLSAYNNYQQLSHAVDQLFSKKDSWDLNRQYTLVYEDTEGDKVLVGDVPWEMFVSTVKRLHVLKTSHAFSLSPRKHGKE
T3: itself; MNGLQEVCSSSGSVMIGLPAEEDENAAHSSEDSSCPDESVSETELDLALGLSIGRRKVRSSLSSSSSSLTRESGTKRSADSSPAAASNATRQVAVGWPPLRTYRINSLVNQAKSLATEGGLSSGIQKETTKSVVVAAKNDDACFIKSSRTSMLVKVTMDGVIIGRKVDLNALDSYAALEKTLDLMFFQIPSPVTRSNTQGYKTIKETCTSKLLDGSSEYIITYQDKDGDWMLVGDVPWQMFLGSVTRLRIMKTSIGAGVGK
T4: itself; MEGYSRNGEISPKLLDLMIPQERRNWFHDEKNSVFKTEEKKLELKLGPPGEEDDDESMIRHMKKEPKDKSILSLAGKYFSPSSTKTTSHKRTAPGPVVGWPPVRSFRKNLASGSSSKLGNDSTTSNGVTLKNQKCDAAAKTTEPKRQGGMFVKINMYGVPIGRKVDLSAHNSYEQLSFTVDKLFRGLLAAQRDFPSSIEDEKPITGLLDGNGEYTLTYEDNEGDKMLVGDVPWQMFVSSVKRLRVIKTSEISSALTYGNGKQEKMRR
B5: IAA15 (Arabidopsis thaliana, UniProt Q9C966); chain MSPEEYVRVWPDSGDLGGTELTLALPGTPTNASEGPKKFGNKRRFLETVDLKLGEAHENNYISSMVTNDQLVGWPPVATARKTVRRKYVKVALDGAAYLRKVDLGMYDCYGQLFTALENMFQGIITICRVTELERKGEFVATYEDKDGDLMLVGDVPWMMFVESCKRMRLMKTGDAIGL
B6: IAA28 (Arabidopsis thaliana, UniProt Q9XFM0); chain MEEEKRLELRLAPPCHQFTSNNNINGSKQKSSTKETSFLSNNRVEVAPVVGWPPVRSSRRNLTAQLKEEMKKKESDEEKELYVKINMEGVPIGRKVNLSAYNNYQQLSHAVDQLFSKKDSWDLNRQYTLVYEDTEGDKVLVGDVPWEMFVSTVKRLHVLKTSHAFSLSPRKHGKE
B7: IAA10 (Arabidopsis thaliana, UniProt Q38828); chain MNGLQEVCSSSGSVMIGLPAEEDENAAHSSEDSSCPDESVSETELDLALGLSIGRRKVRSSLSSSSSSLTRESGTKRSADSSPAAASNATRQVAVGWPPLRTYRINSLVNQAKSLATEGGLSSGIQKETTKSVVVAAKNDDACFIKSSRTSMLVKVTMDGVIIGRKVDLNALDSYAALEKTLDLMFFQIPSPVTRSNTQGYKTIKETCTSKLLDGSSEYIITYQDKDGDWMLVGDVPWQMFLGSVTRLRIMKTSIGAGVGK
B8: IAA18 (Arabidopsis thaliana, UniProt O24408); chain MEGYSRNGEISPKLLDLMIPQERRNWFHDEKNSVFKTEEKKLELKLGPPGEEDDDESMIRHMKKEPKDKSILSLAGKYFSPSSTKTTSHKRTAPGPVVGWPPVRSFRKNLASGSSSKLGNDSTTSNGVTLKNQKCDAAAKTTEPKRQGGMFVKINMYGVPIGRKVDLSAHNSYEQLSFTVDKLFRGLLAAQRDFPSSIEDEKPITGLLDGNGEYTLTYEDNEGDKMLVGDVPWQMFVSSVKRLRVIKTSEISSALTYGNGKQEKMRR
| Sequence | partner | positive tests |
| --- | --- | --- |
| B5 (IAA15) | T1, itself | 2 |
| B6 (IAA28) | T2, itself | 1 |
| B7 (IAA10) | T3, itself | 2 |
| B8 (IAA18) | T4, itself | 1 |

Some of these lines once more (series 2):
| Variant | normalised enrichment score |
| --- | --- |
| P1C | 0.746 |
| F9M | 0.522 |
| R8L | -0.00475 |
| P3V | -0.152 |
| E12D | 0.181 |
| G13W | -0.0267 |
| G13L | 0.243 |
| K2S | 0.164 |
| R8K | 0.128 |
| L4A | 0.642 |
